Measured values of several laboratories.
Parts stem from different laboratories: compare values within a part only.
UniProt P36896, sequence (whole entry, looked up): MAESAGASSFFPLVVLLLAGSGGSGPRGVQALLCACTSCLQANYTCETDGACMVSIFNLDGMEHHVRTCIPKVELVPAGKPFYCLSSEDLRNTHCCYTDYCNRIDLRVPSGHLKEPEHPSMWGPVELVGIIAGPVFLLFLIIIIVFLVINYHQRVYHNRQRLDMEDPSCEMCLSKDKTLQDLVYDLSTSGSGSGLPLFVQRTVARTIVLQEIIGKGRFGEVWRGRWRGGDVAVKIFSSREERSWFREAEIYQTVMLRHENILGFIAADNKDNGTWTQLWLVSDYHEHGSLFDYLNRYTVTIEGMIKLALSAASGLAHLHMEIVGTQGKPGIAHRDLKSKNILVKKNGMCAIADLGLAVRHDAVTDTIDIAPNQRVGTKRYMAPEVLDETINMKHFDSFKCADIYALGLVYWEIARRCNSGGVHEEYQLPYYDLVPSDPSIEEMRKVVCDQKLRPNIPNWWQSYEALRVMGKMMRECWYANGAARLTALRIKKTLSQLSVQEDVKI
UniProt O15264, sequence (whole entry, looked up): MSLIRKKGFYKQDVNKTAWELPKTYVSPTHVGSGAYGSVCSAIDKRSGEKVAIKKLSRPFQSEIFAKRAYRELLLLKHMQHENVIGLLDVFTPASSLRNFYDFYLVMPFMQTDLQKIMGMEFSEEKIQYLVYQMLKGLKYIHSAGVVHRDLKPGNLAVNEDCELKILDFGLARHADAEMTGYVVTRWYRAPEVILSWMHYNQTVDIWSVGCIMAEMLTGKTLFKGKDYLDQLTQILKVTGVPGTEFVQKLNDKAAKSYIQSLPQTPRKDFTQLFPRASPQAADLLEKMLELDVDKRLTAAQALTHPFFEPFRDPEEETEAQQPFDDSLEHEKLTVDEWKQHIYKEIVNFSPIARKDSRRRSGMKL
UniProt P49760, sequence (whole entry, looked up): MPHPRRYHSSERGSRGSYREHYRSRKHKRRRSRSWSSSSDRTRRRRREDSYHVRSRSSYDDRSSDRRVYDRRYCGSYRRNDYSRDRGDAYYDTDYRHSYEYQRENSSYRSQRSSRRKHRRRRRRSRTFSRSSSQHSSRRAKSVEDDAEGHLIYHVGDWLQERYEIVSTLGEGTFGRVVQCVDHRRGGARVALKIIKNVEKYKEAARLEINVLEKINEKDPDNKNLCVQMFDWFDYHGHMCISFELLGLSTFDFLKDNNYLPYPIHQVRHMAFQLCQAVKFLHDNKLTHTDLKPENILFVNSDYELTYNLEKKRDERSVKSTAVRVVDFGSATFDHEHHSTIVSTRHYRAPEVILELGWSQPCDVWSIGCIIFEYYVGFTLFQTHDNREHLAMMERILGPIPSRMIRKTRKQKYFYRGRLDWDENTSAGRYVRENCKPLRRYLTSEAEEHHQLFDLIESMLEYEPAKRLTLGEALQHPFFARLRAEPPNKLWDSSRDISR
UniProt P20794, sequence (whole entry, looked up): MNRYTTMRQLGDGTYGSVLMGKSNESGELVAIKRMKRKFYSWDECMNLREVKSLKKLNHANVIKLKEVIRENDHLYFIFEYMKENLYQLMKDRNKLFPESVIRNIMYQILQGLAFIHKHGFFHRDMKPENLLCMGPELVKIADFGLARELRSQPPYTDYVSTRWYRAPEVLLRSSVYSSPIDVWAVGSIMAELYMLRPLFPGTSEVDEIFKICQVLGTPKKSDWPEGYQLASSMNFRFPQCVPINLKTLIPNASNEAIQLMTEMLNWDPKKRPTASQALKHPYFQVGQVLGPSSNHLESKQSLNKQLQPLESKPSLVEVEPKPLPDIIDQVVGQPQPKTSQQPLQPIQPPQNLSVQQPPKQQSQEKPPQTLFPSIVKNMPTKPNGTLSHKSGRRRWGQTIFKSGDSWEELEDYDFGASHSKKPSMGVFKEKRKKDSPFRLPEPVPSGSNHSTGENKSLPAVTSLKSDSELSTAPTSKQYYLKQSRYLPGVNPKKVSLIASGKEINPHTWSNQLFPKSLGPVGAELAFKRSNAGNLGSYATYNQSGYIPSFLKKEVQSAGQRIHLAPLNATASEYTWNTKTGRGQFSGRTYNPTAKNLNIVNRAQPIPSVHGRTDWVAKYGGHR
UniProt Q13464, sequence (whole entry, looked up): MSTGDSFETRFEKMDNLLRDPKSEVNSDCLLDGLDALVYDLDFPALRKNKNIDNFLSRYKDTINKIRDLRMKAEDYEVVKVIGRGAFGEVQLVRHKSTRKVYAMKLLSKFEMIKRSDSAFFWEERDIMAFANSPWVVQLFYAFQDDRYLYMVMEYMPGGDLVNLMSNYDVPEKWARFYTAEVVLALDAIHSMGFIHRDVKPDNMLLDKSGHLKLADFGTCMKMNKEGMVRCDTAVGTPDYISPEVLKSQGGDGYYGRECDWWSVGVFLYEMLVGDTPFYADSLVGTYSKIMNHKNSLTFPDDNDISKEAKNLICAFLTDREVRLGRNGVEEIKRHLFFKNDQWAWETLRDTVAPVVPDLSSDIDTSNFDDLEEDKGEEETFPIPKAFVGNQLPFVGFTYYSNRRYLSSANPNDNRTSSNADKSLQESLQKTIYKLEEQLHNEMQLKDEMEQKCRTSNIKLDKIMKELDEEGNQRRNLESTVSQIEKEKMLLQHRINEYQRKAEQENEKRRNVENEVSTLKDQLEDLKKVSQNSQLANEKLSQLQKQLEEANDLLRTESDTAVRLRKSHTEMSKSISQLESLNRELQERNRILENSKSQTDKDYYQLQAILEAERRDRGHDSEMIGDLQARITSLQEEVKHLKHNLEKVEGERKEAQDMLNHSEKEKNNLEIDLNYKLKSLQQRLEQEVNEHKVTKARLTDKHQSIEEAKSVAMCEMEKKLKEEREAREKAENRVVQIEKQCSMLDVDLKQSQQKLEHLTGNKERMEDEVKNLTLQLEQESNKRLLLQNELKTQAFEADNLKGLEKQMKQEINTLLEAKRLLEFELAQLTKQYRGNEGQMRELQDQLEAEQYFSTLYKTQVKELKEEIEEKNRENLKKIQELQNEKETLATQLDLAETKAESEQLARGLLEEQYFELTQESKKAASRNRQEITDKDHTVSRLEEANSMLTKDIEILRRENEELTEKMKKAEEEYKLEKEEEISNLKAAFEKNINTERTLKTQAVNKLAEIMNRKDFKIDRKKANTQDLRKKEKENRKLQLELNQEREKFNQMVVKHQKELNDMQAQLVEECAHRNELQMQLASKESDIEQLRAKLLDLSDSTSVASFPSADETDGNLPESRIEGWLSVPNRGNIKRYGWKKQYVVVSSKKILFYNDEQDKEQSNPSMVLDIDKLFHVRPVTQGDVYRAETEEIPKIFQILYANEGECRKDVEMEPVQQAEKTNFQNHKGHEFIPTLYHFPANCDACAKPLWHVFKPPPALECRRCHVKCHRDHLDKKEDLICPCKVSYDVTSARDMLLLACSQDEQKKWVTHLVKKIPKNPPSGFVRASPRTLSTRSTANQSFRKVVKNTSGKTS
UniProt Q9H2X6, sequence (whole entry, looked up): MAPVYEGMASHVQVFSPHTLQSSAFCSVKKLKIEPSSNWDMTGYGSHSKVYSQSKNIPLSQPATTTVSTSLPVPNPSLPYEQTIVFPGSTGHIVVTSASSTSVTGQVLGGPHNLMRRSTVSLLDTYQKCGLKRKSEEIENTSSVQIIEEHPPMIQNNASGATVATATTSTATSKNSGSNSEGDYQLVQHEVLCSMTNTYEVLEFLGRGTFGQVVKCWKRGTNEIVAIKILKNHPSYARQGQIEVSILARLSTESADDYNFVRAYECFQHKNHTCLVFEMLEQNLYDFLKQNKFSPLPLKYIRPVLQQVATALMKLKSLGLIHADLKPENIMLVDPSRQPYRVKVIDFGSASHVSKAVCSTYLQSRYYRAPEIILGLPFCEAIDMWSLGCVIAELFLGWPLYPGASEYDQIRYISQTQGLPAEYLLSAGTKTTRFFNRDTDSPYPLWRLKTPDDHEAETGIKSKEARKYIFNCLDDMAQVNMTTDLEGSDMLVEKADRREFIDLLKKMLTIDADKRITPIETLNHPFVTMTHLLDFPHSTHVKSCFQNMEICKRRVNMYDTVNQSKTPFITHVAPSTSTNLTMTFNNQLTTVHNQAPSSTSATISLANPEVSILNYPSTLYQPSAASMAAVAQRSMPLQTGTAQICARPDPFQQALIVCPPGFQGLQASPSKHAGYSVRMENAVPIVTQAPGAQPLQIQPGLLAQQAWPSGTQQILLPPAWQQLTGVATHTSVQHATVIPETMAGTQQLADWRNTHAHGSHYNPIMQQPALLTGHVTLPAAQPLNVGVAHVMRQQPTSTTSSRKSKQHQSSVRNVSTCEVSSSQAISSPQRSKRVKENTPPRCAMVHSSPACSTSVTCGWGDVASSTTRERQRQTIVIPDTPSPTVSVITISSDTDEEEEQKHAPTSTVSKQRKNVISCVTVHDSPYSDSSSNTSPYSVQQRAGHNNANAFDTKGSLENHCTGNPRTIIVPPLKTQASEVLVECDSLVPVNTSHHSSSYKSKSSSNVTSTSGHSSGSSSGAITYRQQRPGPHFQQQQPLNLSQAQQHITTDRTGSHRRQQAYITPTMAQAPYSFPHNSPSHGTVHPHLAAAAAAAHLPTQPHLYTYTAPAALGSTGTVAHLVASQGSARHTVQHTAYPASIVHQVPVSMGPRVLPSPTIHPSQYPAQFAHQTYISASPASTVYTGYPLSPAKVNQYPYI

Study 1
Cell line: A-375
Tested at: 100 µM
Time: 36 h
Compound | viability
CCCN(CCC)CCc1cccc2c1CC(=O)N2 | 102%
Clc1ccccc1CN1CCc2sccc2C1 | 5.97%
COCCOC(=O)C1=C(C)NC(C)=C(C(=O)OC(C)C)C1c1cccc([N+](=O)[O-])c1 (stereo not shown) | 7.04%
Nc1ccc(S(=O)(=O)Nc2ncccn2)cc1 | 101%
C[C@@H](O)[C@H]1C(=O)N2C(C(=O)O)=C(S[C@@H]3CN[C@H](CNS(N)(=O)=O)C3)[C@H](C)[C@H]12 | 110%
C[C@]12CCC(=O)C=C1CC[C@@H]1[C@@H]2[C@@H](O)C[C@@]2(C)[C@H]1CC[C@]2(O)C(=O)CO | 116%
O=C(O)c1cc(/N=N/c2ccc(O)c(C(=O)O)c2)ccc1O | 96.5%

Study 2
SMILES: CCCCN(CCCC)C(=O)CN1C[C@@H](c2cc(OC)c3c(c2)OCO3)[C@H](C(=O)O)[C@H]1CC(C)(C)CCC
Read-out: cell-free assay
Method: competition with immobilised ligand
Tested at: 1 µM
target | remaining binding
Mitogen-activated protein kinase 13 (MAPK13, Homo sapiens, UniProt O15264) | 100%
Serine/threonine-protein kinase DCLK2 (DCLK2, Homo sapiens, UniProt Q8N568) | 87.4%
Macrophage colony-stimulating factor 1 receptor (CSF1R, Homo sapiens, UniProt P07333) | 86.7%
Myosin-IIIb (MYO3B, Homo sapiens, UniProt Q8WXR4) | 91%
Mitogen-activated protein kinase 7 (MAPK7, Homo sapiens, UniProt Q13164) | 100%
Serine/threonine-protein kinase MAK (MAK, Homo sapiens, UniProt P20794) | 100%
Phosphatidylinositol 4-phosphate 5-kinase type-1 alpha (PIP5K1A, Homo sapiens, UniProt Q99755) | 100%
Interleukin-1 receptor-associated kinase 3 (IRAK3, Homo sapiens, UniProt Q9Y616) | 85%
Casein kinase II subunit alpha (CSNK2A1, Homo sapiens, UniProt P68400) | 88.6%
Dual specificity protein kinase CLK2 (CLK2, Homo sapiens, UniProt P49760) | 100%
Homeodomain-interacting protein kinase 2 (HIPK2, Homo sapiens, UniProt Q9H2X6) | 97.1%
Activin receptor type-1B (ACVR1B, Homo sapiens, UniProt P36896) | 96.4%
Rho-associated protein kinase 1 (ROCK1, Homo sapiens, UniProt Q13464) | 100%

Study 3
Target: Beta-1 adrenergic receptor (ADRB1, Homo sapiens, UniProt P08588)
UniProt P08588, sequence (whole entry, looked up): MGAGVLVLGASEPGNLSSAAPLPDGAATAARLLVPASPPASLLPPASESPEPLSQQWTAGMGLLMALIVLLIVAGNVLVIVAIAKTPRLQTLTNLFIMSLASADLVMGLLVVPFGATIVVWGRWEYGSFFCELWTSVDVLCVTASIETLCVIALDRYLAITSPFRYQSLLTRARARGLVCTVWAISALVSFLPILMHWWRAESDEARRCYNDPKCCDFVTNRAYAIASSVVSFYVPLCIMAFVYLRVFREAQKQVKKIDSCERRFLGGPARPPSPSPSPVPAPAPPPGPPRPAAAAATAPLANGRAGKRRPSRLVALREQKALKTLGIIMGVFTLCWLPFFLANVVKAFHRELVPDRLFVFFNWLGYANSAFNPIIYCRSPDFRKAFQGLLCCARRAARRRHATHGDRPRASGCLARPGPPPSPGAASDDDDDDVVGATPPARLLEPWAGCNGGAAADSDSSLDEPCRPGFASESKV
Mode: agonist
SMILES | EC50
CC(O)CNCc1c(Cl)cccc1Cl (stereo not shown) | ≥ 100 µM
COCc1cc(CC2(NCc3ccc(N(C)C)cc3)COC2)no1 | ≥ 100 µM
CCOc1ccccc1N1CCN(C(=O)C2CNCCO2)CC1 (stereo not shown) | 15.8 µM
COc1cc(OC)c2c(OC)c(-c3ccc4c(c3)OCO4)c(=O)oc2c1 | ≥ 100 µM
Fc1ccc(-c2c[nH]c([C@@H]3COCCN3Cc3cccnc3)n2)c(F)c1 | ≥ 100 µM
Cc1cc(C(=O)Nc2ccc3ccccc3n2)c2cnn(C(C)C)c2n1 | 11.2 µM
Cc1ccc(-c2cc(-c3cccnc3)nc3c(C)noc23)c(C)c1 | ≥ 100 µM
O=C(Nc1ccc([C@@H](O)[C@H]2COCC(=O)N2Cc2ccc(F)cc2)cc1)c1cccs1 | ≥ 100 µM
O=C(Nc1cccc(-n2cnnn2)c1)c1cc2c(F)cccc2s1 | ≥ 100 µM

Study 4
Target: Testis-specific serine/threonine-protein kinase 1 (TSSK1B, Homo sapiens, UniProt Q9BXA7)
Read-out: enzyme activity
Mode: inhibitor
Tested at: 0.5 µM
Relative to: control
Construct (Q9BXA7 1-367): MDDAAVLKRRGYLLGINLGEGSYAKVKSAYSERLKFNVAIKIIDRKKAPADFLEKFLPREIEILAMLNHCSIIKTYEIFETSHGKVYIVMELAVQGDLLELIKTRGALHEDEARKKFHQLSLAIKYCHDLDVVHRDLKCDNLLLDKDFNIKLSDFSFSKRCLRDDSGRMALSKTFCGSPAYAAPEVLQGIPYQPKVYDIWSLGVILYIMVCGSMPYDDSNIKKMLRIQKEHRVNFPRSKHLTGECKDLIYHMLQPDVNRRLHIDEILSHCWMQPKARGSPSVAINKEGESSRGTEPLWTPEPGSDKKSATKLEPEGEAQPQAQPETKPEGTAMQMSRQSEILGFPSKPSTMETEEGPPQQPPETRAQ
Structure (SMILES) | remaining activity [%]
CCN(CC)CCNC(=O)c1c(C)[nH]c(/C=C2\C(=O)Nc3ccc(Cl)cc32)c1C | 8.45
O=C(NC(NC(=S)Nc1ccc(F)c([N+](=O)[O-])c1)C(Cl)(Cl)Cl)C(c1ccccc1)c1ccccc1 (stereo not shown) | 93.4
COc1cc2ncnc(Nc3cccc(Cl)c3)c2cc1OC | 95.7
CCN(CC)C(=O)c1ccc(Nc2nc(OCC3CCCCC3)c3[nH]cnc3n2)cc1 | 15.3
CN(C)C[C@H]1CCn2c(c(C3=C(c4cn(C)c5ccccc45)C(=O)NC3=O)c3ccccc32)C1 | 104
c1ccc(-c2[nH]ncc2-c2ccnc3ccccc23)nc1 | 104
CN([C@@H](Cc1ccc(OS(=O)(=O)c2cccc3cnccc23)cc1)C(=O)N1CCN(c2ccccc2)CC1)S(=O)(=O)c1cccc2cnccc12 | 95.4
Cc1cc2ncc(-c3ccccc3)nc2cc1C | 113
Ic1cccc(CSc2nnc(-c3ccncc3)o2)c1 | 97.6
C[C@@H]1CCN(C(=O)CC#N)C[C@@H]1N(C)c1ncnc2[nH]ccc12 | 85.1
COc1cc2ncnc(Nc3ccc(O)c(Br)c3)c2cc1OC | 84.7
O=C1C(Cl)=C(N2C(=O)CCC2=O)C(=O)c2ccccc21 | 104
Cn1nc2c3c(cccc31)C(=O)c1ccccc1-2 | 98.4
Cc1cn(-c2cc(NC(=O)c3ccc(C)c(Nc4nccc(-c5cccnc5)n4)c3)cc(C(F)(F)F)c2)cn1 | 77.7
N#Cc1c(NC(=O)c2cccc3ccccc23)sc2c1CCCC2 | 94.9
Cc1nc2cc3nc(-c4cccs4)cnc3cc2n1C | 91.3
O=c1cc(-c2cccc3c2Sc2ccccc2S3)oc(N2CCOCC2)c1 | 107
O=C(Nc1cccc(Nc2nccc(Nc3cccc(C(F)(F)F)c3)n2)c1)C1CC1 | 100
CCN(CC)CCNC(=O)c1c(C)[nH]c(/C=C2\C(=O)Nc3ccc(F)cc32)c1C | 20.7
N#C/C(=C\c1ccc(O)c(O)c1)C(=O)NCc1ccccc1 | 90.2
c1ccc(-c2cnc(Nc3ccc(OCCN4CCCC4)cc3)s2)cc1 | 96.5
Nc1cccc(-c2cc3c(Oc4cccc(O)c4)ncnc3[nH]2)c1 | 91.1
O=C1c2ccccc2-c2n[nH]c3cccc1c23 | 73.4

Excerpt of the above (study 4):
Structure (SMILES) | remaining activity [%]
O=C(Nc1cccc(Nc2nccc(Nc3cccc(C(F)(F)F)c3)n2)c1)C1CC1 | 100
CCN(CC)CCNC(=O)c1c(C)[nH]c(/C=C2\C(=O)Nc3ccc(F)cc32)c1C | 20.7
N#C/C(=C\c1ccc(O)c(O)c1)C(=O)NCc1ccccc1 | 90.2
